Results pooled from the literature.
Numbers after ± are the reported error.
Target: Cholinesterase (BCHE, Equus caballus, UniProt P81908)
Sequence of UniProt P81908 (whole entry, looked up): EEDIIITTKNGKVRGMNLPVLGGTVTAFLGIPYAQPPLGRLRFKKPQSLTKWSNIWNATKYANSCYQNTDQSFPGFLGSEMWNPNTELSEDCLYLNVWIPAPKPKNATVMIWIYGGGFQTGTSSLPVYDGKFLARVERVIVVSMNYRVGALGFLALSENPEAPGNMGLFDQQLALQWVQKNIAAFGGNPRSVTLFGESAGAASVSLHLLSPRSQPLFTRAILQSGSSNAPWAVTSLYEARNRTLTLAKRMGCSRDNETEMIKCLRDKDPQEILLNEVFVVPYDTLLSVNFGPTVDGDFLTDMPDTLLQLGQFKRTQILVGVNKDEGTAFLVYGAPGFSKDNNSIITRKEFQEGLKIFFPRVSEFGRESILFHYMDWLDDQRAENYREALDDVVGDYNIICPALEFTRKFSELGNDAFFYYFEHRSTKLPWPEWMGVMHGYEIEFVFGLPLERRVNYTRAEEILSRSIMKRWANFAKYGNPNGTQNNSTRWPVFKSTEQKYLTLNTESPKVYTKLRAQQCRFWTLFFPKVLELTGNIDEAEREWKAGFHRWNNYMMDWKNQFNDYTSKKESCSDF

The inhibition of `COC(=O)C1=CO[C@@H](OC(C)=O)[C@@H]2C(Cn3cc(-c4ccc(F)cc4)nn3)=CC[C@H]12` is reported as 33.37 ± 0.18% (inhibitor; horse serum BuChE; 10000 µM).
The inhibition of `Ic1ccccc1/N=N/c1ccc2nc(-c3ccccc3)cc(-c3ccccc3)c2c1` is reported as 32.5% (enzyme activity, inhibitor; 100 µM).
With `COc1ccnc(Nc2c3c(nc4ccccc24)CCC(C)C3)c1` (centres unmarked) the inhibition was -113% (enzyme activity, inhibitor; 50 µM).
`CCCCc1cc(-c2ccccc2)c2cc(/N=N/c3ccc([N+](=O)[O-])cc3)ccc2n1` has an inhibition of 44.5% (enzyme activity, inhibitor; 100 µM).
`c1cc(Nc2c3c(nc4ccccc24)CCCC3)c2cccnc2c1` has an inhibition of -107% (enzyme activity, inhibitor; 50 µM).
`COC(=O)C1=CO[C@@H](O)[C@@H]2C(Cn3cc(-c4ccccc4)nn3)=CC[C@H]12` gave an inhibition of 67.51 ± 0.16% (inhibitor; horse serum BuChE; 10000 µM).
`Cc1ccnc(Nc2c3c(nc4ccc(Cl)cc24)CCCC3)c1` gave an inhibition of 53.7% (enzyme activity, inhibitor; 50 µM).
`COC(=O)C1=CO[C@@H](OC(C)=O)[C@@H]2C(Cn3cc(CN(C)Cc4ccccc4)nn3)=CC[C@H]12` has an inhibition of 41.96 ± 0.12% (inhibitor; horse serum BuChE; 10000 µM).
`O=S(=O)(F)CCc1cn(-c2ccc(Br)cc2)nn1` gave an inhibition of 82.4% (Ellman; horse; 20 µM).
With `c1ccc2c(Nc3c4c(nc5ccccc35)CCCC4)cccc2c1` the inhibition was 60.1% (enzyme activity, inhibitor; 50 µM).
With `COC(=O)C1=CO[C@@H](OC(C)=O)[C@@H]2C(Cn3cc(CCO[Si](C)(C)C(C)(C)C)nn3)=CC[C@H]12` the inhibition was 9.03 ± 0.3% (inhibitor; horse serum BuChE; 10000 µM).
The inhibition of `COc1ccc(Nc2c3c(nc4ccccc24)CCCC3)cc1` is reported as under -200% (enzyme activity, inhibitor; 50 µM).
`CCCCCc1nc2ccc(/N=N/c3ccc(Cl)cc3)cc2c(-c2ccccc2)c1I` has an inhibition of 36.3% (enzyme activity, inhibitor; 100 µM).
`COC(=O)C1=CO[C@@H](OC(C)=O)[C@@H]2C(Cn3cc(C4(O)CCCCC4)nn3)=CC[C@H]12` gave an inhibition of 42.73 ± 0.18% (inhibitor; horse serum BuChE; 10000 µM).
With `COc1ccc(Nc2c3c(nc4ccccc24)CCCC3)nc1` the inhibition was 23% (enzyme activity, inhibitor; 50 µM).
For `O=S(=O)(F)CCc1cn(-c2ccc(-c3ccccc3)cc2)nn1`, the inhibition was 53.6% (inhibitor, Ellman; 20 µM).
`COC(=O)C1=CO[C@@H](OC(C)=O)[C@@H]2C(Cn3cc(C4(O)CCCC4)nn3)=CC[C@H]12` gave an inhibition of 40.7 ± 0.23% (inhibitor; horse serum BuChE; 10000 µM).
The inhibition of `O=C(O)Cc1cccc(OC(=O)NCCCCCn2ccc3ccc(F)cc32)c1` is reported as 42% (enzyme activity, inhibitor, HPLC; 10 µM).
With `O=[N+]([O-])c1ccc(/N=N/c2ccc3nc(-c4ccccc4)cc(-c4ccccc4)c3c2)cc1` the inhibition was over 65% (enzyme activity, inhibitor; 100 µM).
`O=C(/C=C/c1ccc(O)cc1)OC[C@H]1O[C@@H](Oc2c(-c3ccc(O)cc3)oc3cc(O)cc(O)c3c2=O)[C@H](O)[C@@H](OC(=O)/C=C/c2ccc(O)cc2)[C@@H]1O` has an inhibition of 52.1% (enzyme activity, inhibitor, Ellman; 100 µg/mL).
With `COC(=O)C1=CO[C@@H](OC(C)=O)[C@@H]2C(Cn3cc(CON4C(=O)c5ccccc5C4=O)nn3)=CC[C@H]12` the inhibition was 27.29 ± 0.17% (inhibitor; horse serum BuChE; 10000 µM).
The inhibition of `COc1cc(/C=C/C(=O)OC[C@H]2O[C@@H](Oc3c(-c4ccc(O)cc4)oc4cc(O)cc(O)c4c3=O)[C@H](O)[C@@H](OC(=O)/C=C/c3ccc(O)cc3)[C@@H]2O)ccc1O` is reported as 54.2% (enzyme activity, inhibitor, Ellman; 100 µg/mL).
`Cc1ccc(-c2nc3ccc(/N=N/c4ccc([N+](=O)[O-])cc4)cc3c(-c3ccccc3)c2I)cc1`: inhibition “no inhibition” (enzyme activity, inhibitor; 100 µM).
With `CC(C)(C)c1ccc(Nc2c3c(nc4ccccc24)CCCC3)cc1` the inhibition was 70.1% (enzyme activity, inhibitor; 100 µM).
`O=C(O)CCCN1C(=O)/C(=C/c2cn(-c3ccccc3)nc2-c2ccc(OCc3ccccc3F)cc2)SC1=S` has an inhibition of under 0% (10 µM).
`COc1ccc(Nc2c3c(nc4ccc(Cl)cc24)CCCC3)nc1` gave an inhibition of -47.1% (enzyme activity, inhibitor; 100 µM).
The inhibition of `O=C(/C=C/c1ccc(O)cc1)OC[C@H]1O[C@@H](Oc2c(-c3ccc(O)cc3)oc3cc(O)cc(O)c3c2=O)[C@H](O)[C@@H](O)[C@@H]1O` is reported as 16.8% (enzyme activity, inhibitor, Ellman; 100 µg/mL).
The inhibition of `Cc1ccc(-c2nc3ccc(/N=N/c4ccc(Br)cc4)cc3c(-c3ccccc3)c2I)cc1` is reported as 14.9% (enzyme activity, inhibitor; 100 µM).
`O=C1Nc2ccccc2/C1=N/NC(=O)c1cc(-c2ccc3c4c(cccc24)CC3)n[nH]1` gave an inhibition of under 0% (10 µM).
`O=S(=O)(F)CCc1cn(-c2ccc(F)cc2)nn1` has an inhibition of 69% (Ellman; horse; 20 µM).
The inhibition of `O=C(CCn1cnc2sc3c(c2c1=O)CCCC3)NCCc1nc2ccccc2[nH]1` is reported as 5.71 ± 2.14% (inhibitor, Ellman method; 10 µM).
For `COC(=O)C1=CO[C@@H](O)[C@@H]2C(Cn3cc(C(O)(c4ccccc4)c4ccccc4)nn3)=CC[C@H]12`, the inhibition was 99.72 ± 0.18% (inhibitor; horse serum BuChE; 10000 µM).

A few entries again:
`c1cc(Nc2c3c(nc4ccccc24)CCCC3)c2cccnc2c1` has an inhibition of -107% (enzyme activity, inhibitor; 50 µM).
`COC(=O)C1=CO[C@@H](O)[C@@H]2C(Cn3cc(-c4ccccc4)nn3)=CC[C@H]12` gave an inhibition of 67.51 ± 0.16% (inhibitor; horse serum BuChE; 10000 µM).
`Cc1ccnc(Nc2c3c(nc4ccc(Cl)cc24)CCCC3)c1` gave an inhibition of 53.7% (enzyme activity, inhibitor; 50 µM).
